Experimental data of several laboratories.
Parts stem from different laboratories: compare values within a part only.
Sequence of UniProt Q9UKE5 (whole entry, looked up): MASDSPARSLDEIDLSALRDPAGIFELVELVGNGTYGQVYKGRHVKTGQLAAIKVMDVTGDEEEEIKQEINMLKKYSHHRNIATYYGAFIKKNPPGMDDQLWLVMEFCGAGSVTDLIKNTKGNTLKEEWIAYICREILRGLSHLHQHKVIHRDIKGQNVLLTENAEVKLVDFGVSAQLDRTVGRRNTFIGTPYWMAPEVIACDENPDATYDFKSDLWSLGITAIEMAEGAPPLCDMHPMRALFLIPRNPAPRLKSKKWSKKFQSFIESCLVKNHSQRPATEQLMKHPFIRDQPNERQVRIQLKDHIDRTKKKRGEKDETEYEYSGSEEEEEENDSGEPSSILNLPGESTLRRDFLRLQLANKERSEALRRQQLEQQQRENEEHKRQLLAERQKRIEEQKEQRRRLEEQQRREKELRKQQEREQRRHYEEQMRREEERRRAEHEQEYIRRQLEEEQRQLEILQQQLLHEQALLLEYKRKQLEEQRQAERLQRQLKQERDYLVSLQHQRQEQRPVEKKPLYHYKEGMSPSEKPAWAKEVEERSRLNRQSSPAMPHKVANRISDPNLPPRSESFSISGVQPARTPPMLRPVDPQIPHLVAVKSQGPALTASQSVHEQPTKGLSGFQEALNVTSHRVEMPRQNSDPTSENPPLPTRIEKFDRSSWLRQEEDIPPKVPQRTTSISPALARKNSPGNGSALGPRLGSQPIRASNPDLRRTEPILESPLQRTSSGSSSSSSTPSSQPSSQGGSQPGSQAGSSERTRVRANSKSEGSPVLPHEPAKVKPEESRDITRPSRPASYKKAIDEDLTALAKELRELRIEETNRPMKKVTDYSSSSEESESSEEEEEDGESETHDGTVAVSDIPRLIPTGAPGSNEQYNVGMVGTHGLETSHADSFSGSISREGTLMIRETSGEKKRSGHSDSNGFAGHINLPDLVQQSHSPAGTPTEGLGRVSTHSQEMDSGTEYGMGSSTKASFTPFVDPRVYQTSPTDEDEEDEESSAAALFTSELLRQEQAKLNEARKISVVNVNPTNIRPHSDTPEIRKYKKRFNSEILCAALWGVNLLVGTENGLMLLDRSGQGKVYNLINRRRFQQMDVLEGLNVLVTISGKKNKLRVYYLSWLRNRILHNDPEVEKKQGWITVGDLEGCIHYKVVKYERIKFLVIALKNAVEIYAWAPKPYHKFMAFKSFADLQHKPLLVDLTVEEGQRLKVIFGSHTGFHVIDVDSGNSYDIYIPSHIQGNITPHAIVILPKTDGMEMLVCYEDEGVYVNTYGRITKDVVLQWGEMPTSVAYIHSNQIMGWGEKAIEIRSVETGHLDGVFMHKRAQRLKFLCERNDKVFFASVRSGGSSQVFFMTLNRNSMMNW
Sequence of UniProt Q32MK0 (whole entry, looked up): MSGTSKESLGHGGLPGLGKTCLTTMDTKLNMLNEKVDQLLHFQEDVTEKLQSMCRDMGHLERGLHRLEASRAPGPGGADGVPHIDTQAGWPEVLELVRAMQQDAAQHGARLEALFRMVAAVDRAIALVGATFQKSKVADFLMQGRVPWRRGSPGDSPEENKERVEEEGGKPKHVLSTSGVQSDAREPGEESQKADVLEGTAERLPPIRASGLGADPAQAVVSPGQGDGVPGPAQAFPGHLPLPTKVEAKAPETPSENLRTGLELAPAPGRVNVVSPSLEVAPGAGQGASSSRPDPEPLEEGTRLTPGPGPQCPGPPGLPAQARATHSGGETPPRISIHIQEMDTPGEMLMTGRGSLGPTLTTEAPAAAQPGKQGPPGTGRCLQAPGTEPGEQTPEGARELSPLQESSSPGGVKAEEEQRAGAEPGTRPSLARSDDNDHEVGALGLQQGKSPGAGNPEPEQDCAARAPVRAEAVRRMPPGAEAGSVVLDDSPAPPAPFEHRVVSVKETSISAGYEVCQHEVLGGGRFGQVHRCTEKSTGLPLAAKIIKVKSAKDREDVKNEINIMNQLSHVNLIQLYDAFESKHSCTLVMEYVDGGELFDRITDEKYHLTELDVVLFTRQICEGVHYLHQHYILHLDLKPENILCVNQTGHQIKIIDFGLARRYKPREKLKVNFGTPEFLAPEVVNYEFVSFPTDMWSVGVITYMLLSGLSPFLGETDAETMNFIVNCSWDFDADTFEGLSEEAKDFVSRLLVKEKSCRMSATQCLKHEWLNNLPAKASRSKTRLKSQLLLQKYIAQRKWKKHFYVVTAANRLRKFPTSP
Sequence of UniProt P30291 (whole entry, looked up): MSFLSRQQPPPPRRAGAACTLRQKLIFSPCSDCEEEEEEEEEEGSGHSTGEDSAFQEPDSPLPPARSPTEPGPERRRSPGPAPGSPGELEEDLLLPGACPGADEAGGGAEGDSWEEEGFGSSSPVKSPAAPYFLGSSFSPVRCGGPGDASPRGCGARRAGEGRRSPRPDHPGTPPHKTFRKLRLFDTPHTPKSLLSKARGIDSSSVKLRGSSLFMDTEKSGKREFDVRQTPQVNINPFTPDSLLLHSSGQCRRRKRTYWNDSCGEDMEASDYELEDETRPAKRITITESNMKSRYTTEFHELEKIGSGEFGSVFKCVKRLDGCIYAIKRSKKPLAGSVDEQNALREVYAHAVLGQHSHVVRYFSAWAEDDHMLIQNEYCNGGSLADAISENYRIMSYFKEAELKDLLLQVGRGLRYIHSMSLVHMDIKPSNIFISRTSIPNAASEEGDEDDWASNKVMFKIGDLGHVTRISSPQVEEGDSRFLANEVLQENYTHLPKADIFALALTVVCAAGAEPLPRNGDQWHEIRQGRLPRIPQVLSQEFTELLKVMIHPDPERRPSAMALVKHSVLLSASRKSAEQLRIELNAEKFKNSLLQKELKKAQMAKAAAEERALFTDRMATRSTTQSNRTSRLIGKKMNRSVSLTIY
Sequence of UniProt Q8IU85 (whole entry, looked up): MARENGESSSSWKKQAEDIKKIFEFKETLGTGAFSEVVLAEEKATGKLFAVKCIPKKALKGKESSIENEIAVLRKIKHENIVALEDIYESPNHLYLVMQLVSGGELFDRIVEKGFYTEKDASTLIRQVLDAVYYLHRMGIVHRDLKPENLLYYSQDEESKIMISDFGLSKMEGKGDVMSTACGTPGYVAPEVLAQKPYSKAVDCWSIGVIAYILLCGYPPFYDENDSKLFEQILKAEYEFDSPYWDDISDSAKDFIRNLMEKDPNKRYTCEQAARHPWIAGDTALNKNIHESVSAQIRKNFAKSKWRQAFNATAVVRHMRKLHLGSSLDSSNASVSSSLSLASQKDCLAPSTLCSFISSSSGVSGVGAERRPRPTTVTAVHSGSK

Block 1
Target: Calcium/calmodulin-dependent protein kinase type II subunit alpha (CAMK2A, Homo sapiens, UniProt Q9UQM7)
Sequence of UniProt Q9UQM7 (whole entry, looked up): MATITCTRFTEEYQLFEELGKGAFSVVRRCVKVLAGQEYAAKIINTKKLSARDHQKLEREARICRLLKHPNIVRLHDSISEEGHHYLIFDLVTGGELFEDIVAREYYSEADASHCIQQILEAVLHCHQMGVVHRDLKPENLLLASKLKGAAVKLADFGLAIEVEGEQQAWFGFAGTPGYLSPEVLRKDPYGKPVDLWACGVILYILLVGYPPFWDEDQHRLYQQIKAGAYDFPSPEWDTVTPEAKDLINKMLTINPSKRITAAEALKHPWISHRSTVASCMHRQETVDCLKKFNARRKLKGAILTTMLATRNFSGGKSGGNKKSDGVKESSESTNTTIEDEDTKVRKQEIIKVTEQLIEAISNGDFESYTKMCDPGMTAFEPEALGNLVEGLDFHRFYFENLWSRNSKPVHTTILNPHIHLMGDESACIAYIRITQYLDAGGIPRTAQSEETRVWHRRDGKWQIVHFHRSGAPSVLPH
Observed: enzyme activity
Mode: inhibitor
Concentration: 10 µM
For `COc1cc(O)c(CC=C(C)C)c(O)c1C(=O)/C=C/c1ccc(O)cc1`, the inhibition was -2%.
With `C[C@H](O)CC(=O)O` the inhibition was -16%.
The inhibition of `CCOc1cc(N)c(Cl)cc1C(=O)NCC1CN(Cc2ccc(F)cc2)CCO1` (stereo not shown) is reported as 12%.
`O=C(/C=C/C=C/c1ccccc1)CCc1ccccc1` gave an inhibition of 15%.
`CC(C)Cc1ccc(C(C)C(=O)OCc2ccccn2)cc1` (stereo not shown) has an inhibition of -8%.
`CCc1c(C)[nH]c2c1C(=O)C(CN1CCOCC1)CC2` (stereo not shown) has an inhibition of 0%.
For `CC1(C)CC[C@]2(C(=O)O)CC[C@]3(C)C(=CC[C@@H]4[C@@]5(C)CC[C@H](O[C@@H]6OC[C@H](O)[C@H](O)[C@H]6O)[C@@](C)(CO)[C@@H]5CC[C@]43C)[C@@H]2C1`, the inhibition was 8%.

Block 2
SMILES: Cc1ccc(NC(=O)c2ccnc(C(F)(F)F)c2)cc1-c1cc(OCCO)nc(N2CCOCC2)c1
Concentration: 1 µM
It gave 100% for remaining binding (MYLK3 (Homo sapiens, UniProt Q32MK0); competitive binding; MLCK).
The remaining binding was 100% (TNIK (Homo sapiens, UniProt Q9UKE5); competitive binding panel; reference: vehicle).
It gave 88% for remaining binding (WEE1 (Homo sapiens, UniProt P30291); competitive binding panel; reference: vehicle).
MAP4K3 (Homo sapiens, UniProt Q8IVH8); competitive binding panel; reference: vehicle — remaining binding: 100%.
TAOK2 (Homo sapiens, UniProt Q9UL54); competitive binding panel; reference: vehicle — remaining binding: 80%.
For PLK1 (Homo sapiens, UniProt P53350); competitive binding panel; reference: vehicle: remaining binding read 94%.
It gave 72% for remaining binding (FGFR3 (Homo sapiens, UniProt P22607, G697C); competitive binding panel; reference: vehicle).
For CSNK1G1 (Homo sapiens, UniProt Q9HCP0); competitive binding panel; reference: vehicle: remaining binding read 91%.
It gave 86% for remaining binding (PRKG2 (Homo sapiens, UniProt Q13237); competitive binding panel; reference: vehicle).
The remaining binding was 95% (GAK (Homo sapiens, UniProt O14976); competitive binding panel; reference: vehicle).
It gave 79% for remaining binding (MKNK2 (Homo sapiens, UniProt Q9HBH9); competitive binding panel; reference: vehicle).
The remaining binding was 94% (MAP3K13 (Homo sapiens, UniProt O43283); competitive binding, scanMAX; LZK, 1000 nM).
For CAMK1D (Homo sapiens, UniProt Q8IU85); competitive binding panel; reference: vehicle: remaining binding read 94%.
For NEK6 (Homo sapiens, UniProt Q9HC98); competitive binding panel; reference: vehicle: remaining binding read 81%.

Block 3
Target: Receptor tyrosine-protein kinase erbB-4 (ERBB4, Homo sapiens, UniProt Q15303)
Sequence of UniProt Q15303 (whole entry, looked up): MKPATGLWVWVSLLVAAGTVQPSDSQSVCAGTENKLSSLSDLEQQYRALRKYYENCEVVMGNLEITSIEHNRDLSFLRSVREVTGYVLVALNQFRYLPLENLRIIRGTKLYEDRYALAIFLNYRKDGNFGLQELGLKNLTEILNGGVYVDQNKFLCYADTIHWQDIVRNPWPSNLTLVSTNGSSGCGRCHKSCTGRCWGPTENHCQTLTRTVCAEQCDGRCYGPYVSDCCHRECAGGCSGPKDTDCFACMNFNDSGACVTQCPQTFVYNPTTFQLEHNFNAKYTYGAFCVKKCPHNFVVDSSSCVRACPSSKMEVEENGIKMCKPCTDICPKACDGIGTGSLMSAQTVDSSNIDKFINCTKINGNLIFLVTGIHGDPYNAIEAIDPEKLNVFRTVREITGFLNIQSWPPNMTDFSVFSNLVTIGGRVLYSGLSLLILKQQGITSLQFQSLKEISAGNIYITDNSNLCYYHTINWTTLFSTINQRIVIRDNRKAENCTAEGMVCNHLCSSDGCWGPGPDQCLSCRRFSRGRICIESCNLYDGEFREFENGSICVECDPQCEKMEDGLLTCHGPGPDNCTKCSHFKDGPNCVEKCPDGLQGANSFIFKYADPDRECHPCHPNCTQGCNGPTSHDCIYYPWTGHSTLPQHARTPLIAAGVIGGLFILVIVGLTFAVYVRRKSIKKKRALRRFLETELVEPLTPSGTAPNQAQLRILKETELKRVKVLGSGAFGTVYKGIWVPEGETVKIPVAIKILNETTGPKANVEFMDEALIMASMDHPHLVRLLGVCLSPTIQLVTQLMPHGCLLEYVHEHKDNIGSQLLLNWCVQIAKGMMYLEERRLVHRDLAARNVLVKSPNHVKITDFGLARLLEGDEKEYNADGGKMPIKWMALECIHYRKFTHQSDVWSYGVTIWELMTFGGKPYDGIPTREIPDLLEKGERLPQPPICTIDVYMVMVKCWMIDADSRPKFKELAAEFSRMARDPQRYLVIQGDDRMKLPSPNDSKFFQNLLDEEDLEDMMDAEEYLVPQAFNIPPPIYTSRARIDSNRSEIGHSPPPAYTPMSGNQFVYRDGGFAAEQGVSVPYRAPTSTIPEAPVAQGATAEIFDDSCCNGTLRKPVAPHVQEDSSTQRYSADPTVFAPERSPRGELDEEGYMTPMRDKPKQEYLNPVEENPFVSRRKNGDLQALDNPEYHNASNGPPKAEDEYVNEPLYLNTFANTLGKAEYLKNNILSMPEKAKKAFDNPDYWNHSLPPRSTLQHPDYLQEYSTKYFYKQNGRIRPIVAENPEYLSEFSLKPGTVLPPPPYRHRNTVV
Observed: enzyme activity
Mode: inhibitor
Concentration: 0.5 µM
Reference: control
`COc1ccc(-c2cnc3c(-c4ccsc4)cnn3c2)cc1` has a remaining activity of 94.2%.
The remaining activity of `Cc1ccc(NC(=O)c2ccc(CN3CCN(C)CC3)cc2)cc1Nc1nccc(-c2cccnc2)n1` is reported as 92.2%.
`CN(C)CCCn1cc(C2=C(c3c[nH]c4ccccc34)C(=O)NC2=O)c2ccccc21` has a remaining activity of 87.7%.
`O=C1NC(=O)/C(=C/c2ccc3nccnc3c2)S1` gave a remaining activity of 99.4%.
With `COc1cc2ncc(-c3ccccc3)nc2cc1OC` the remaining activity was 65.9%.
The remaining activity of `Cc1nc(Nc2ncc(C(=O)Nc3c(C)cccc3Cl)s2)cc(N2CCN(CCO)CC2)n1` is reported as 4.03%.
The remaining activity of `CCN1/C(=C/C(C)=O)Sc2ccc(OC)cc21` is reported as 101%.
With `COc1cc2ncnc(Nc3ccc(OCc4ccccc4)cc3)c2cc1OC` the remaining activity was 9.19%.
With `CCOc1cc2ncnc(Nc3cccc(Br)c3)c2cc1OCC` the remaining activity was 34.3%.
For `C[S+]([O-])c1ccc(-c2nc(-c3ccncc3)c(-c3ccc(F)cc3)[nH]2)cc1` (stereo not shown), the remaining activity was 66.8%.
`O=c1cc(N2CCOCC2)oc2c1ccc1ccccc12` gave a remaining activity of 101%.
`COc1cc2ncnc(N3CCN(C(=O)Nc4ccc(Oc5ccccc5)cc4)CC3)c2cc1OC` gave a remaining activity of 101%.
The remaining activity of `Nc1[nH]nc2nnc(-c3c(-c4ccccc4)nn4ccccc34)cc12` is reported as 91.4%.
`O=C(Nc1ccc(Cl)cc1)c1ccccc1NCc1ccncc1` gave a remaining activity of 71.3%.
For `CC(C)[C@H](CO)Nc1nc(Nc2cccc(Cl)c2)c2ncn(C(C)C)c2n1`, the remaining activity was 78.4%.
With `Cn1cc(/C=C2\C(=O)Nc3ccc(S(N)(=O)=O)cc32)c2ccccc21` the remaining activity was 81.3%.
`Cn1cnc2cc3c(Nc4cccc(Br)c4)ncnc3cc21` gave a remaining activity of 75.5%.
With `CCC(=O)Nc1ccc2ncnc(Nc3cccc(Br)c3)c2c1` the remaining activity was 82.3%.
`COc1ccc(Cl)cc1NC(=O)Nc1cc(C)nc2ccccc12` gave a remaining activity of 97.8%.
With `CC(C)c1nn(-c2c(Cl)cccc2Cl)c2nc(Cc3ccc(OCCO)cc3)[nH]c(=O)c12` the remaining activity was 101%.
`CC(=O)O/N=C1/C(c2c(O)[nH]c3cc(Br)ccc23)=Nc2ccccc21` has a remaining activity of 101%.

Block 4
Cell line: Huh-7
Concentration: 10 µM
Time: 24 h
For `CS(=O)(=O)c1ccc(C2=C(c3ccccc3)C(=O)OC2)cc1`, the viability was 96.9%.
The viability of `CC(=O)Nc1ccc(O)cc1` is reported as 98.6%.
For `COc1c(C)c2c(c(O)c1C/C=C(\C)CCC(=O)O)C(=O)OC2`, the viability was 61.6%.
With `CC(C)CCCC(C)N` (stereo not shown) the viability was 98%.
`OC[C@H]1O[C@H](O[C@]2(CCl)O[C@H](CCl)[C@@H](O)[C@@H]2O)[C@H](O)[C@@H](O)[C@H]1Cl` gave a viability of 102%.
`CC(C)(CO)[C@@H](O)C(=O)NCCC(=O)O` has a viability of 98.2%.
The viability of `COc1cnc(NS(=O)(=O)c2ccc(N)cc2)nc1` is reported as 97.5%.
For `CN(C)CCOC(=O)C(c1ccccc1)C1(O)CCCC1` (stereo not shown), the viability was 101%.
The viability of `CC(=O)O[C@H]1C(=O)[C@@]2(C)[C@H]([C@H](OC(=O)c3ccccc3)[C@]3(O)C[C@H](OC(=O)[C@H](O)[C@@H](NC(=O)c4ccccc4)c4ccccc4)C(C)=C1C3(C)C)[C@]1(OC(C)=O)CO[C@@H]1C[C@@H]2O` is reported as 62.3%.
`COc1cc(Cc2cnc(N)nc2N)cc(OC)c1OC` has a viability of 103%.
With `O=C(Nc1ccc([N+](=O)[O-])cc1Cl)c1cc(Cl)ccc1O` the viability was 54.9%.
`Cc1c2oc3c(C)ccc(C(=O)N[C@@H]4C(=O)N[C@H](C(C)C)C(=O)N5CCC[C@H]5C(=O)N(C)CC(=O)N(C)[C@@H](C(C)C)C(=O)O[C@@H]4C)c3nc-2c(C(=O)N[C@@H]2C(=O)N[C@H](C(C)C)C(=O)N3CCC[C@H]3C(=O)N(C)CC(=O)N(C)[C@@H](C(C)C)C(=O)O[C@@H]2C)c(N)c1=O` has a viability of 32.9%.
`CS(=O)(=O)c1ccc([C@@H](O)[C@@H](CO)NC(=O)C(Cl)Cl)cc1` gave a viability of 96%.

Some of these lines once more (block 2):
For PLK1 (Homo sapiens, UniProt P53350); competitive binding panel; reference: vehicle: remaining binding read 94%.
It gave 72% for remaining binding (FGFR3 (Homo sapiens, UniProt P22607, G697C); competitive binding panel; reference: vehicle).
For CSNK1G1 (Homo sapiens, UniProt Q9HCP0); competitive binding panel; reference: vehicle: remaining binding read 91%.
It gave 86% for remaining binding (PRKG2 (Homo sapiens, UniProt Q13237); competitive binding panel; reference: vehicle).
The remaining binding was 95% (GAK (Homo sapiens, UniProt O14976); competitive binding panel; reference: vehicle).
It gave 79% for remaining binding (MKNK2 (Homo sapiens, UniProt Q9HBH9); competitive binding panel; reference: vehicle).
The remaining binding was 94% (MAP3K13 (Homo sapiens, UniProt O43283); competitive binding, scanMAX; LZK, 1000 nM).
For CAMK1D (Homo sapiens, UniProt Q8IU85); competitive binding panel; reference: vehicle: remaining binding read 94%.
